Results from different studies.
Organism: Escherichia coli

`CO[C@@H](C(N)=O)[C@H](NC(=O)c1ccc(NC(=O)[C@@H](N)Cc2ccc(O)cc2)cc1)C(=O)Nc1ccc(C(=O)Nc2ccc(C(=O)Nc3ccc(C(=O)O)c(O)c3OC(C)C)c(O)c2OC(C)C)cc1` gave an MIC of 1 µg/mL (monooxygenase clone; 16 h, 37 °C).
With `CC[C@H](C)[C@H](NC(=O)[C@@H](CCCNC(=N)N)NC(=O)[C@H](CCCNC(=N)N)NC(=O)[C@@H]1CCCN1C(=O)[C@@H]1CCCN1C(=O)[C@H](CCCNC(=N)N)NC(=O)[C@@H]1CCCN1C(=O)[C@H](CCCNC(=N)N)NC(=O)[C@@H]1CCCN1C(=O)[C@H](Cc1ccccc1)NC(=O)[C@H](Cc1ccc(O)cc1)NC(=O)[C@@H]1CCCN1C(=O)[C@@H]1CCCN1C(=O)[C@H](CCCCN)NC(=O)[C@H](CC(=O)O)NC(=O)[C@@H](N)C(C)C)C(=O)N[C@@H](Cc1ccc(O)cc1)C(=O)N[C@@H](CC(N)=O)C(=O)N[C@H](CCCNC(=N)N)C(N)=O` the MIC was 16 µg/mL (broth microdilution; BW25113; 18 h, 37 °C, 25% MHB2).
For `CC(C)[C@@H]1NC(=O)[C@@H](CCCNC(=N)N)NC(=O)[C@H]([C@@H](C)O)NC(=O)[C@@H](CCCCN)NC(=O)[C@H](Cc2ccccc2)NC(=O)[C@@H](Cc2ccccc2)NC1=O`, the MIC was greater than 32 µg/mL (AR0346, colistin-resistant; added: colistin).
`CC[C@H](C)[C@H](NC(=O)[C@H](CCCNC(=N)N)NC(=O)[C@@H](NC(=O)[C@@H](NC(=O)[C@H](CCCNC(=N)N)NC(=O)[C@H](CCCCN)NC(=O)[C@H](Cc1ccccc1)NC(=O)[C@H](CCCNC(=N)N)NC(=O)[C@H](CCCCN)NC(=O)[C@@H](NC(=O)[C@@H](N)CCCCN)[C@@H](C)CC)[C@@H](C)CC)C(C)C)C(=O)N[C@@H](CCCCN)C(=O)N[C@@H](Cc1ccccc1)C(=O)N[C@@H](CC(C)C)C(=O)N[C@@H](CCCNC(=N)N)C(=O)N[C@H](C(=O)N[C@H](C(=O)N[C@@H](CCCNC(=N)N)C(=O)N[C@@H](CCCNC(=N)N)C(N)=O)C(C)C)C(C)C` has an MIC of 2.5 µg/mL (broth microdilution; 25922).
`CC(C)Oc1c(NC(=O)c2ccc(NC(=O)[C@H](CC(N)=O)NC(=O)c3ccc(/N=N/c4ccccc4)cc3)cc2)ccc(C(=O)N/N=C/c2ccc(C(=O)O)cc2)c1O` has an MIC of 0.4 µg/mL (BW25113; dark ground state).
`CC[C@H](C)[C@H](NC(=O)[C@@H](CCCNC(=N)N)NC(=O)[C@H](CCCNC(=N)N)NC(=O)[C@H](CCCN)NC(=O)[C@H](Cc1c[nH]c2ccccc12)NC(=O)[C@H](CCCNC(=N)N)NC(=O)[C@@H]1CCCN1C(=O)[C@H](CCCNC(=N)N)NC(=O)[C@@H]1CCCN1C(=O)[C@H](CC(C)C)NC(=O)[C@H](Cc1ccc(O)cc1)NC(=O)[C@@H]1CCCN1C(=O)[C@@H]1CCCN1C(=O)[C@H](CCCCN)NC(=O)[C@H](CC(=O)O)NC(=O)[C@@H](N)C(C)C)C(=O)N[C@@H](Cc1ccc(O)cc1)C(=O)N[C@@H](CC(N)=O)C(=O)N[C@H](CCCNC(=N)N)C(N)=O` gave an MIC of 8 µg/mL (broth microdilution; MC4100; 18 h, 37 °C, 25% MHB2).
The MIC of `CC[C@H](C)[C@H](NC(=O)[C@H](C)NC(=O)[C@@H](NC(=O)[C@H](CC(=O)O)NC(=O)[C@H](CCCCN)NC(=O)[C@H](CO)NC(=O)[C@@H](NC(=O)[C@H](CC(N)=O)NC(=O)[C@H](C)NC(=O)[C@@H](NC(=O)[C@H](CCC(=O)O)NC(=O)[C@H](CCCCN)NC(=O)[C@@H](NC(=O)[C@@H](NC(=O)[C@H](Cc1c[nH]cn1)NC(=O)[C@H](CCCCN)NC(=O)[C@@H](NC(=O)[C@H](CCCCN)NC(=O)[C@H](CCCCN)NC(=O)[C@@H](NC(=O)[C@H](CC(C)C)NC(=O)[C@H](CCCCN)NC(=O)[C@H](CC(N)=O)NC(=O)[C@H](Cc1ccccc1)NC(=O)[C@H](CCCNC(=N)N)NC(=O)[C@H](CCCCN)NC(=O)[C@H](CCCNC(=N)N)NC(=O)[C@H](Cc1ccccc1)NC(=O)CN)C(C)C)C(C)C)[C@@H](C)O)[C@@H](C)CC)[C@@H](C)O)C(C)C)C(C)C)C(=O)N[C@H](C(=O)N[C@@H](C)C(=O)NCC(=O)N[C@@H](CO)C(=O)NCC(=O)N[C@H](C(=O)N[C@@H](C)C(=O)N[C@H](C(=O)NCC(=O)N[C@@H](C)C(=O)N[C@@H](C)C(=O)N[C@@H](CCSC)C(N)=O)C(C)C)C(C)C)C(C)C` is reported as 0.5 µg/mL (broth microdilution; RKI 131/03, CAMHB with 10% mouse serum; 150 mM NaCl).
For `CC(C)C[C@H](NC(=O)[C@@H](NC(=O)[C@H](CCCCN)NC(=O)[C@H](CCCCN)NC(=O)[C@H](CC(C)C)NC(=O)[C@H](Cc1c[nH]c2ccccc12)NC(=O)[C@H](CCCCN)NC(=O)[C@H](Cc1c[nH]c2ccccc12)NC(=O)[C@H](CC(C)C)NC(=O)[C@H](CCCCN)NC(=O)[C@H](CCCCN)NC(=O)[C@@H](N)C(C)C)C(C)C)C(N)=O`, the MIC was 32 µM (24 h, 37 °C, Mueller-Hinton broth, human serum 10%).

Excerpt of the above:
`CO[C@@H](C(N)=O)[C@H](NC(=O)c1ccc(NC(=O)[C@@H](N)Cc2ccc(O)cc2)cc1)C(=O)Nc1ccc(C(=O)Nc2ccc(C(=O)Nc3ccc(C(=O)O)c(O)c3OC(C)C)c(O)c2OC(C)C)cc1` gave an MIC of 1 µg/mL (monooxygenase clone; 16 h, 37 °C).
